Measured values from different studies.
Numbered parts are unrelated; each lists some results of a single study. Substitutions count along the parent as printed.

Sample 1
Target: Probable WRKY transcription factor 33, N-terminal DNA-binding domain (WRKY33, Arabidopsis thaliana, UniProt Q8S8P5, residues 169-264)
Technique: DNA-protein interaction ELISA
Form: double-stranded DNA, one strand shown
Medium: in vitro, bacterial lysate
Concentration: not given
Notes: whole dsDNA probe, crude lysate protein
Reference: highest signal in screen
Direction: higher = stronger binding
Target sequence (chain): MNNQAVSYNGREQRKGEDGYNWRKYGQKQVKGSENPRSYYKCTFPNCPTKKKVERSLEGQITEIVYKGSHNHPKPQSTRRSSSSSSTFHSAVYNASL
Strand | relative absorbance
AAAAAAAGGTTTGGGCTTCACGTTATAAAA | 21.4 % of maximum
AAAAAAATGATTGCCAATGCTCGCAAAAAA | 15.9 % of maximum
AAAAAATTTGTACTTTAAGTTTACATAAAA | 16.8 % of maximum
AAAAAATCGGGCCCCGTTAGCACTCTAAAA | 20.3 % of maximum
AAAAAACTAGGTATCGGTAGGCGCCGAAAA | 33.9 % of maximum
AAAAAAGCTTCGCGCCAGCGGGAAAA | 18.8 % of maximum
AAAAAATGAGAGAATTTCCGGTTCAGAAAA | 23.1 % of maximum
AAAAAATGGATCTTTACTTTAGGCCAAAAA | 22.1 % of maximum
AAAAAACCGAGTGTTGCCAGTTGCAGAAAA | 25.4 % of maximum

Sample 2
Target: ABI1, truncated, D143A, DHFR fusion (Arabidopsis thaliana)
Technique: DHFR PCA, deep sequencing
Medium: yeast
Notes: methotrexate growth selection, single substitutions
Together with: (+)-ABA 1.4 µM
Reference: wild-type fitted maximum
Direction: higher = stronger binding
Starting sequence: PYL1, truncated, DHFR fusion (Arabidopsis thaliana); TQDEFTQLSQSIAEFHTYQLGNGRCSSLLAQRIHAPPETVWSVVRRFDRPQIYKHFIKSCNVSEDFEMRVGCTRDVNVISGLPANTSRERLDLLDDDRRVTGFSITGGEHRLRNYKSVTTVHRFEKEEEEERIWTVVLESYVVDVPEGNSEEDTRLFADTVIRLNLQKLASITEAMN; partner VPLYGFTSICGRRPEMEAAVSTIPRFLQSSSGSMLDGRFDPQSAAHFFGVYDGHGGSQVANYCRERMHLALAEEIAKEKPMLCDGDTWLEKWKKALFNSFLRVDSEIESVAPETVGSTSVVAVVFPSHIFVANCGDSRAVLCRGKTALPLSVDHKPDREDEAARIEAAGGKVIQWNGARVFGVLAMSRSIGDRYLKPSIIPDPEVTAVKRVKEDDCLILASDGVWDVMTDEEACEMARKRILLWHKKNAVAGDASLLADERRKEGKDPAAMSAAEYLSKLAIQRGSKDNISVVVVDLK
Change | relative binding score
G107M | 3.42%
S9A | 74.3%
I172E | -25.8%
E130F | 39.7%
W41E | -16.9%
L112S | -9.21%

Sample 3
Target: Interferon regulatory factor 7, full length, phosphomimetic (IRF7, Homo sapiens, UniProt Q92985, residues 1-503, S101K/S471D/S472D/S475D/S476D/S477D/S483D/S484D/S487D)
UniProt Q92985, sequence (whole entry, unmodified, looked up): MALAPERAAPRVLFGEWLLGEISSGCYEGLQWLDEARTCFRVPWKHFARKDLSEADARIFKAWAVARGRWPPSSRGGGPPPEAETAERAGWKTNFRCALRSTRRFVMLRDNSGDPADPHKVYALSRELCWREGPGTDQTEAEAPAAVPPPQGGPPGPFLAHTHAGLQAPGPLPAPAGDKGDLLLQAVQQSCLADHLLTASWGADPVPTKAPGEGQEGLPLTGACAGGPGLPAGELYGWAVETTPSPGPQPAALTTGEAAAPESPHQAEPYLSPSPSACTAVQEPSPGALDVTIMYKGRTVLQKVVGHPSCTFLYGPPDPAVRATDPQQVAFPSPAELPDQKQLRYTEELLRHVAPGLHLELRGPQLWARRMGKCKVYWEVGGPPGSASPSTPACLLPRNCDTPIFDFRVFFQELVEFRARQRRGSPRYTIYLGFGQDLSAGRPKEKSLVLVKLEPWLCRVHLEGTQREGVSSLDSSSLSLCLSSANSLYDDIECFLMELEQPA
Technique: protein-binding microarray
Form: double-stranded DNA, one strand shown
Medium: in vitro
Concentration: 250 nM
Notes: 60-bp whole probe
Together with: salmon DNA 0.4 mg/ml
Reference: random background probes
Direction: higher = stronger binding
Shared flanks, not repeated: GCCTAGCAC … GTCTTGATTCGCTTGACGCTGCTG
Strand | log fluorescence [z-score]
CAGAATCCAGCTCAGGTTGTGTGCTAG | -0.266
TCTCATTTCCAATTACCTTTGTGCTAG | 2.01
TTAGATCTTAGACTGGATTAGTGCTAG | -0.267
TTAGATATCGGGTTTCCATTAGTGCTA | 1.79
GACGGTTTCCTTTCCCCGACGTGCTAG | 5.25
GACGGAATGGACTATCGGGACGTGCTA | -0.388
TCAATCCCCAGTCTCATACTGTGCTAG | 0.5
TTAGGTATCGGGACTGGGTCAGTGCTA | -0.0565
GACGATTCCGGTTTCGAGACGTGCTAG | 5.27

Mixed results
Substance | target | test | system | conditions | how to read | quantity | result
PhoQ, residues 284 288 289 292 302 303 TTSMTC | PhoP, residues 12 14 15 18 19 MHTVL (Escherichia coli, UniProt P23836) | Sort-seq, item: YFP reporter | E. coli | PhoQ-PhoP variant library, together with: 10 µM Mg2+ | reference: high Mg2+ state, higher = stronger signaling | fold induction | 9.29

Repeated from above (sample 3):
Strand | log fluorescence [z-score]
TTAGGTATCGGGACTGGGTCAGTGCTA | -0.0565
GACGATTCCGGTTTCGAGACGTGCTAG | 5.27
